Measurements from different studies.
Protocols differ between the studies behind these lines. ± gives the spread as reported. Values after ≈ are worked out from the molar mass of the structure shown.
BCHE: Cholinesterase (BCHE, Homo sapiens, UniProt P06276)
Sequence of UniProt P06276 (whole entry, looked up): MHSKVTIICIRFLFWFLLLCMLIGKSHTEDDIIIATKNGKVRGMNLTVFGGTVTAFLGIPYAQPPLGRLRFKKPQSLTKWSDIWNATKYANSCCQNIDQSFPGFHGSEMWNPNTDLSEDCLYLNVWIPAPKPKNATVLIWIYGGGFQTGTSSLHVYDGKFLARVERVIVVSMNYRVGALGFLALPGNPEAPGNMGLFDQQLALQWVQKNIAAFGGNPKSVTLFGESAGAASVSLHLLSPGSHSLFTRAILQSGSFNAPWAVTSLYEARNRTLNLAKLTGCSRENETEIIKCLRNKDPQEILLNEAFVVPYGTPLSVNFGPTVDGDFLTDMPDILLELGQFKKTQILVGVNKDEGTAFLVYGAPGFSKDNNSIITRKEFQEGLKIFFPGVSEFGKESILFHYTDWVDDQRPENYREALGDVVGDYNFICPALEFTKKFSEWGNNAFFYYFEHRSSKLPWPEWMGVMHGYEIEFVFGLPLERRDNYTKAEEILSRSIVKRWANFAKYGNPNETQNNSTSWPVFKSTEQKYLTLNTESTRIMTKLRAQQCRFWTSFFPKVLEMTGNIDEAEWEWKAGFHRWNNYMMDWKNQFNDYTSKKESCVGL
Sequence of UniProt P51659 (whole entry, looked up): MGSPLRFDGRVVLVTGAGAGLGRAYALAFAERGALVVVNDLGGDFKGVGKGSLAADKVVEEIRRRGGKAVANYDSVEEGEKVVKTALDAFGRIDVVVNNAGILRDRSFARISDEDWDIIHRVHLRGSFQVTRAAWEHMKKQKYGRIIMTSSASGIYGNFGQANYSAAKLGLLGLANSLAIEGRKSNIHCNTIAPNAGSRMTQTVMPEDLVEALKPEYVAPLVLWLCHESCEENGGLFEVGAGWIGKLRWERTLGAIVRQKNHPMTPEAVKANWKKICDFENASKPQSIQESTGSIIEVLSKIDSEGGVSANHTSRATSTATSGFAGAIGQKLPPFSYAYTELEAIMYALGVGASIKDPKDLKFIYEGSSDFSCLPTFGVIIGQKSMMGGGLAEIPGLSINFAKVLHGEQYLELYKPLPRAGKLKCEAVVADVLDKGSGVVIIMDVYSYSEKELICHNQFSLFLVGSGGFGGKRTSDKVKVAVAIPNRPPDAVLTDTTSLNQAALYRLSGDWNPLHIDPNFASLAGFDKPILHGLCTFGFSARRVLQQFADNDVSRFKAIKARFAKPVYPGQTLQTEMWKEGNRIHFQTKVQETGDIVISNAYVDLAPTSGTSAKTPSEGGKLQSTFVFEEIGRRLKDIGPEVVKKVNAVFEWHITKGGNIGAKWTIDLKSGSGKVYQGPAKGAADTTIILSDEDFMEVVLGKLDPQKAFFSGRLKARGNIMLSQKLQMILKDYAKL

SMILES	tested on	test	test system	setting	how to read	quantity	result
Cn1nc(C(=O)N2CCC(c3[nH]ncc3Cc3ccccc3)CC2)c2ccccc2c1=O	Plasmodium falciparum	parasite growth, SYBR Green	3D7 wild type	72 h		EC50	157 ± 37 nM
CC12CC3CC(C)(C1)CC(N)(C3)C2	Plasmodium falciparum		Dd2			IC50	7940 nM
CC(C)[C@H]1NC(=O)[C@H](Cc2ccccc2)NC(=O)CNC(=O)[C@@H](Cc2c[nH]c3ccccc23)NC(=O)[C@H](CCCCN)NC(=O)[C@@H](CCCN)NC1=O	Acanthamoeba castellanii			trophozoites		IC50	12.1 µg/mL
c1ccc(C2(c3ccccc3)CC2C2=NCCN2)cc1 (centres unmarked)	BCHE	inhibitor		with Triton		IC50	13400 ± 5050 nM
C[C@H]1CN(c2n[nH]c3nc(N[C@H]4CC[C@H](NS(=O)(=O)CCC(F)(F)F)CC4)ncc23)CCO1	HSD17B4 (Homo sapiens, UniProt P51659)	biochemical				IC50	≥ 20000 nM
CC(C)C[C@@H]1NC(=O)CNC(=O)[C@@H](Cc2ccccc2)NC(=O)[C@H](CCCCN)NC(=O)[C@@H](CCCN)NC(=O)[C@@H](C(C)C)NC1=O	Naegleria fowleri			trophozoites		IC50	> 16 µg/mL
COC(=O)[C@@H]1[C@H]2C[C@H]3c4[nH]c5ccccc5c4CCN3C[C@@H]2CC[C@@H]1O	Plasmodium falciparum		7G8			IC50	2000 nM
CC[C@H](C)[C@@H]1NC(=O)[C@@H]2CCCN2C(=O)[C@H](CC(C)C)NC(=O)[C@H](CC(C)C)NC(=O)CNC(=O)[C@@H](NC(=O)[C@@H](NC(=O)[C@H](CC(=O)O)NC(=O)CNC(=O)[C@@H](NC(=O)[C@H](C)NC(=O)CNC(=O)[C@H](CCCCN)NC(=O)[C@H](CC(C)C)NC(=O)[C@H](CC(C)C)NC(=O)[C@H](CCCCN)NC(=O)CNC(=O)[C@@H](NC(=O)[C@@H](N)CC(C)C)C(C)C)C(C)C)C(C)C)CSSC[C@@H](C(=O)O)NC1=O		RNA-seq, item: Stoml3	mouse, traumatic brain injury model, frontal cortex and hippocampus	dose not given	reference: TBI alone	log2 fold change	-2.69
CCn1c(-c2ccccc2)cc2nnc3ccccc3c21	Plasmodium falciparum	parasite growth, SYBR Green	3D7 DHODH E182D	72 h		EC50	632 ± 120 nM
NCCCC[C@@H]1NC(=O)[C@@H](CCCN)NC(=O)[C@@H](Cc2ccccc2)NC(=O)[C@H](Cc2ccccc2)NC(=O)CNC1=O	Acanthamoeba castellanii			trophozoites		IC90	> 16 µg/mL
O=C(O)C[C@H](NC(=O)[C@H](CC(=O)O)NC(=O)[C@H](CC(=O)O)NC(=O)[C@H](CC(=O)O)NC(=O)[C@H](CC(=O)O)NC(=O)[C@H](CC(=O)O)NC(=O)[C@H](CC(=O)O)NC(=O)[C@H](CC(=O)O)NC(=O)[C@H](CC(=O)O)NC(=O)[C@H](CC(=O)O)NC(=O)[C@H](CC(=O)O)NC(=O)[C@H](CCCCNC(=O)c1ccc(C(=O)NCCOCCOB2BBBBBB3BBBB3B2)cc1)NC(=O)CN1CCN(CC(=O)O)CCN(CC(=O)O)CCN(CC(=O)O)CC1)C(=O)O [gallium-67 labelled]			ddY male mice, spleen	intravenous, 37 kBq, 1 h		tissue uptake	0.19 %ID/g
CC(C)[C@@H]1NC(=O)[C@@H](Cc2ccccc2)NC(=O)[C@H](Cc2ccccc2)NC(=O)[C@@H]([C@H](C)O)NC(=O)[C@@H](CCCNC(=N)N)NC1=O	Acanthamoeba castellanii			trophozoites		IC90	> 16 µg/mL
C[C@]12C=CC(=O)C=C1CC[C@@H]1C2=CC[C@]2(C)[C@@H](C(=O)CN3CCN(c4cc(N5CCCC5)nc(N5CCCC5)n4)CC3)CC[C@@H]12	Plasmodium falciparum		GB4			IC50	1260 nM
CC(Oc1ccc(C(=O)c2ccc(F)cc2)cc1)C(=O)N1CCc2ccccc21 (centres unmarked)	Plasmodium falciparum	parasite growth	Dd2			EC50	282 ± 39 nM
CCOC(=O)N1CCC(=C2c3ccc(Cl)cc3CCc3cccnc32)CC1	Plasmodium falciparum		Dd2			IC50	10000 nM
Cc1noc(-c2cccs2)c1C(=O)NC(C)c1cccc2ccccc12 (centres unmarked)	Plasmodium falciparum	parasite growth, SYBR Green	3D7 wild type	72 h		EC50	50.4 ± 16 nM

SMILES	tested on	test	test system	setting	how to read	quantity	result
Nc1c2c(nc3ccccc13)CCCC2O (centres unmarked)	BCHE	inhibitor, fluorometric				IC50	320 ± 250 nM
C[C@H]1NC(=O)[C@H](Cc2c[nH]c3ccccc23)NC(=O)[C@@H](Cc2ccccc2)NC(=O)[C@@H](CCCN)NC(=O)[C@H]([C@@H](C)O)NC(=O)[C@@H](CCCN)NC(=O)[C@H](Cc2c[nH]c3ccccc23)NC(=O)[C@@H](C)NC1=O	Naegleria fowleri			trophozoites		IC90	> 16 µg/mL
COCc1ccccc1C(=O)NCCOc1cc(C)cc(C)c1	Plasmodium falciparum	parasite growth, SYBR Green	3D7 wild type	72 h		EC50	189 ± 55 nM
CC(C)(C)c1cc(C=C(C#N)C#N)cc(C(C)(C)C)c1O	Plasmodium falciparum		W2			IC50	320 nM
CC(C)[C@@H]1NC(=O)[C@@H](CCCNC(=N)N)NC(=O)[C@H]([C@@H](C)O)NC(=O)[C@@H](CCCNC(=N)N)NC(=O)[C@H](Cc2ccccc2)NC(=O)[C@@H](Cc2ccccc2)NC1=O	Naegleria fowleri			trophozoites		IC90	> 16 µg/mL
CNC(=O)c1cc(Cl)cc(C)c1NC(=O)c1cc(Br)nn1-c1ncccc1Cl	Spodoptera litura	leaf-dip	third instar larvae	12.5 ppm, 96 h		mortality	100%
C[C@@H](O)[C@@H]1NC(=O)[C@H](Cc2ccccc2)NC(=O)[C@@H](Cc2ccccc2)NC(=O)[C@H]([C@@H](C)O)NC(=O)[C@@H](CCCN)NC(=O)[C@H](CCCN)NC(=O)[C@@H](CCCCN)NC1=O	Naegleria fowleri			trophozoites		IC90	> 16 µg/mL
CC(C)(C)[C@]1(O)CCN2C[C@H]3c4ccccc4CCc4cccc(c43)[C@@H]2C1	Plasmodium falciparum		GB4			IC50	5010 nM
Cc1cc(=O)oc2c1ccc1oc(C(O)c3ccc(Cl)cc3)c(C)c12 (centres unmarked)	Plasmodium falciparum	parasite growth, SYBR Green	3D7 DHODH E182D	72 h		EC50	273 ± 38 nM
CCCCN1[C@@H]2CC[C@H]1C[C@@H](OC(c1ccc(F)cc1)c1ccc(F)cc1)C2	Plasmodium falciparum		7G8			IC50	1580 nM
OC(c1cc(C(F)(F)F)nc2c(C(F)(F)F)cccc12)C1CCCCN1 (centres unmarked)	Plasmodium falciparum	parasite growth, SYBR Green	3D7 wild type	72 h		EC50	17.6 ± 0.49 nM
CN(C)CCCN1c2ccccc2CCc2ccccc21	Plasmodium falciparum		GB4			IC50	7940 nM
CC[C@H](C)[C@H](NC(=O)[C@H](C)NC(=O)[C@H](CCCCN)NC(=O)[C@H](CC(C)C)NC(=O)[C@H](C)NC(=O)[C@@H](NC(=O)[C@H](Cc1c[nH]cn1)NC(=O)[C@H](CC(C)C)NC(=O)[C@@H](NC(=O)[C@@H](NC(=O)[C@H](CCCCN)NC(=O)[C@H](C)NC(=O)[C@H](C)NC(=O)[C@H](CO)NC(=O)[C@H](CCCCN)NC(=O)[C@H](Cc1ccccc1)NC(=O)[C@@H](NC(=O)[C@H](CCCCN)NC(=O)[C@H](CC(C)C)NC(=O)[C@H](Cc1ccccc1)NC(=O)[C@H](CO)NC(=O)[C@H](CCCCN)NC(=O)[C@H](Cc1c[nH]c2ccccc12)NC(=O)[C@H](CCCCN)NC(C)=O)[C@@H](C)O)[C@@H](C)O)C(C)C)[C@@H](C)O)C(=O)N[C@@H](CO)C(=O)N[C@@H](CO)C(N)=O	Pseudomonas aeruginosa		ATCC 27853			MIC50	4 µg/mL (≈ 1.36 µM)
CC(C)[C@@H]1NC(=O)[C@@H](CCCN)NC(=O)[C@H]([C@@H](C)O)NC(=O)[C@@H](CCCN)NC(=O)[C@H](Cc2ccccc2)NC(=O)[C@@H](C)NC(=O)[C@@H](C(C)C)NC(=O)[C@@H](C)NC(=O)[C@H](Cc2c[nH]c3ccccc23)NC(=O)[C@@H](Cc2c[nH]c3ccccc23)NC1=O	Naegleria fowleri			trophozoites		IC50	> 16 µg/mL
CCNC(=O)c1ccc(-n2nc(C)cc2-c2ccccc2)cc1	Plasmodium falciparum	parasite growth, SYBR Green		72 h	reference: 3D7-E182D over 3D7	EC50 ratio	3
COc1c(CCC[P+](c2ccccc2)(c2ccccc2)c2ccccc2)cc2c(c1OC)OCO2.[I-]	SR	SRB				LC50	> -4 log M
